Measured values from different studies.
Compare with care: the assays were run in different laboratories. ± marks the error that the study gave. No end group written: not given here. *: point of attachment.
B1: enzyme (Bacillus pumilus, UniProt A8FFI9); chain EARSIAWSVDEFFKNREGTFVIQEVKEKSPWVYNKKRAKERFAPQSTFKVANALIGLQTGAVRDEYDIKYWDGVKREIDNWNRDHTLGSGMRDSVVWYYQAMARDIGEERMNHWVKAIHYGNKDISGGIDQFWLSSTLRISPIEQVRFLKQLYEETLPFDLKNMRTVKRMMVQEEEKHATLYGKTGSGSDIGWYVGFIKHEHKTYILATNIKGTGIEAKDITYRILKKYHLMEASV
B2: UGT1A9 (Homo sapiens, UniProt O60656); chain GKLLVVPMDGSHWFTMRSVVEKLILRGHEVVVVMPEVSWQLGRSLNCTVKTYSTSYTLEDLDREFKAFAHAQWKAQVRSIYSLLMGSYNDIFDLFFSNCRSLFKDKKLVEYLKESSFDAVFLDPFDNCGLIVAKYFSLPSVVFARGILCHYLEEGAQCPAPLSYVPRILLGFSDAMTFKERVRNHIMHLEEHLLCHRFFKNALEIASEILQTPVTEYDLYSHTSIWLLRTDFVLDYPKPVMPNMIFIGGINCHQGKPLPMEFEAYINASGEHGIVVFSLGSMVSEIPEKKAMAIADALGKIPQTVLWRYTGTRPSNLANNTILVKWLPQNDLLGHPMTRAFITHAGSHGVYESICNGVPMVMMPLFGDQMDNAKRMETKGAGVTLNVLEMTSEDLENALKAVINDKSYKENIMRLSSLHKDRPVEPLDLAVFWVEFVMRHKGAPHLRPAAHDLTWYQYHSLDVIGFLLAVVLTVAFITFKCCAYGYRKCLGKKGRVKKAHKSKTH
Sequence of UniProt P08246 (whole entry, looked up): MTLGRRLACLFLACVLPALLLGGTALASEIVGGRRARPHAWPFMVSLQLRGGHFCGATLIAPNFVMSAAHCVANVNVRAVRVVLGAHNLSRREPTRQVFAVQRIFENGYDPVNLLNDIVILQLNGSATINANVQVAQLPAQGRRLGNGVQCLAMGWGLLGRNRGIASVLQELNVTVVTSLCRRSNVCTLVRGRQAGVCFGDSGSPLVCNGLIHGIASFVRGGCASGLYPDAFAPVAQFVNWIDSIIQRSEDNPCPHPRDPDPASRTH
Sequence of UniProt P00760 (whole entry, looked up): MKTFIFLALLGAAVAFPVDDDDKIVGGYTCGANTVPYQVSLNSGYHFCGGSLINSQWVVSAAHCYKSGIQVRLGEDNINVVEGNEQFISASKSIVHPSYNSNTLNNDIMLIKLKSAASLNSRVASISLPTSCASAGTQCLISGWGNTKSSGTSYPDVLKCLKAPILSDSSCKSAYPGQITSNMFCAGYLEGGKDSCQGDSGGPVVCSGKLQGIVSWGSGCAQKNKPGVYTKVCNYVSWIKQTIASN
Sequence of UniProt P23141 (whole entry, looked up): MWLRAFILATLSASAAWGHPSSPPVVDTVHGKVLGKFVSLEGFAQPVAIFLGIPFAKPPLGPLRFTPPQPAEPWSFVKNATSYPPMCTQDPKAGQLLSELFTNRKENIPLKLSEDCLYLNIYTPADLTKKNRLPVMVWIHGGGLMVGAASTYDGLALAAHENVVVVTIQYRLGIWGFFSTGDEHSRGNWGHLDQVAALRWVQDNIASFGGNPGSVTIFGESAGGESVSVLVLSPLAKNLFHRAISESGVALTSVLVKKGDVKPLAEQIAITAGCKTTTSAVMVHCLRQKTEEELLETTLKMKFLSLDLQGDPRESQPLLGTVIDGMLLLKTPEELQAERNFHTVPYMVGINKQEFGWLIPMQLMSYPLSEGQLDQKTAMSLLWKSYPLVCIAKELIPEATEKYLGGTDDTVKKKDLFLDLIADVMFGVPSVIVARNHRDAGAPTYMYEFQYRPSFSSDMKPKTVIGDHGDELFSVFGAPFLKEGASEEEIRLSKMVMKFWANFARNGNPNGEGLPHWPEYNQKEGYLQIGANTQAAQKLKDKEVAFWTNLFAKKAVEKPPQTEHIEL

CARLSLSWRGLTLCPSK (68Ga-DOTA-labelled)
uptake (mouse VAP-1; ex vivo biodistribution; peptide, wild-type mouse, B16 melanoma xenograft, lung; 60 min, added: 500-fold excess unlabelled DOTA-peptide): 0.15 ± 0.01 SUV

NCC(F)(F)C(F)(F)C(F)(F)C(F)(F)C(F)(F)C(F)(F)F
Km (Neutrophil elastase (ELANE, Homo sapiens, UniProt P08246); cleavage, substrate; pH 7.5): 56.1 µM

B1 (enzyme)
kcat/Km (CC(C)(O/N=C(\C(=O)N[C@@H]1C(=O)N2C(C(=O)[O-])=C(C[n+]3ccccc3)CS[C@H]12)c1csc(N)n1)C(=O)O; steady-state kinetics; pH 7): 8100 ± 600 M⁻¹ s⁻¹

B-type natriuretic peptide (human)
loss of biological activity (293 cells expressing NPR-A; cGMP radioimmunoassay; human kidney membranes; concentration not given, 20 min, 37 °C): 85%

B2 (UGT1A9)
Vmax (CCN(CC)C(=O)/C(C#N)=C/c1cc(O)c(O)c([N+](=O)[O-])c1; steady-state kinetics; pH 7.4, 37 °C): 0.0884 µmol/min/mg

CC(C)[C@H](NC(=O)[C@@H]1CCCN1C(=O)[C@H](CCCNC(=N)N)NC(=O)[C@H](CS)NC(=O)[C@H](Cc1c[nH]c2ccccc12)NC(=O)[C@H](CCCNC(=N)N)NC(=O)[C@@H](Cc1ccccc1)NC(=O)[C@H](Cc1c[nH]cn1)NC(=O)[C@H](CCC(=O)O)NC(=O)[C@H](CS)NC(=O)[C@H](CS)NC(=O)[C@H](CCCCN)NC(=O)[C@@H]1CC(=O)N[C@@H](CCCNC(=N)N)C(=O)N[C@@H](C)C(=O)N[C@@H](CC(=O)O)C(=O)N[C@H](Cc2ccc(O)cc2)C(=O)N1)C(N)=O [technetium-99m labelled]
tissue uptake (C57 mice, stomach; intravenous, 0.037 MBq, 2 h): 1.61 ± 0.35 %ID/g

rnpA F107W (Bacillus subtilis)
pKa (NMR, item: His22; 25 °C, 0.50 M NaCl, folded, sulfate-bound, numbering of the source, added: sulfate 20 mM): 6.11

GSS(Octanoyl)FLSPEHQRVQQRKESKKPPAKLQPR (ghrelin; Octanoyl = CCCCCCCC(=O)*; sequence looked up)
remaining compound (CES1 (Homo sapiens, UniProt P23141); HPLC-UV; peptide; 1 mg/mL, 15 min, pH 7.4, 37 °C): 17.2 ± 4.9%

insulin human
half-life (Serine protease 1 (PRSS1, Bos taurus, UniProt P00760); substrate, RP-HPLC; 1:2 enzyme to substrate ratio, pH 7.4, 37 °C): 7 min

A few entries again:
NCC(F)(F)C(F)(F)C(F)(F)C(F)(F)C(F)(F)C(F)(F)F
Km (Neutrophil elastase (ELANE, Homo sapiens, UniProt P08246); cleavage, substrate; pH 7.5): 56.1 µM
